Assay results pooled from the literature.
Compare with care: the assays were run in different laboratories. ± marks the error that the study gave.

| SMILES | cell line | read-out | action | time | notes | together with | EC50 |
| --- | --- | --- | --- | --- | --- | --- | --- |
| NS(=O)(=O)OC[C@H]1C[C@@H](Nc2ccnc3cc(-c4cccc(SC(F)(F)F)c4)nn23)[C@H](O)[C@@H]1O | BRD4-HiBiT cells | BRD4 degradation rescue | inhibitor | 2 h | – | dBET6 500 nM | 0.491 µM |
| CCOC(=O)C1=C(C)NC2=C(C(=O)OC(c3ccc(OC)c(OC)c3)C2)C1c1ccc(Cl)cc1C (stereo not drawn) | J774.A1 | cytotoxicity | – | – | – | – | > 20 µM |
| COC[C@H](NC(=O)c1cnc(C)s1)C(=O)N[C@@H](COC)C(=O)N[C@@H](Cc1ccccc1)C(=O)[C@@]1(C)CO1 | BRD4-HiBiT cells | BRD4 degradation rescue | inhibitor | 2 h | 50% degradation rescued | dBET6 500 nM | 9.31 µM |
| Cc1nn(-c2nc3c(F)cc(F)cc3s2)c(O)c1C(c1cccc(C(F)(F)F)c1)c1c(C)nn(-c2nc3c(F)cc(F)cc3s2)c1O | THP1-Dual | IFNB1 luciferase reporter | inhibitor | – | – | HT-DNA | 15.9 ± 1.5 µM |
| COc1cnc2cccc(N3CCc4c(cc(Cn5ccnc5C)cc4-c4cn(C)nc4C(F)(F)F)C3=O)c2c1 | RL95-2 | cell growth | inhibitor | 120 h | – | – | 13 µM |
| NS(=O)(=O)OC[C@@H]1C[C@@H](n2ccc3c(N[C@H]4CCc5ccccc54)ncnc32)C[C@@H]1O | BRD4-HiBiT cells | BRD4 degradation rescue | inhibitor | 4 h | – | dBET6 500 nM | 0.108 µM |
| CCOC(=O)C1=C(C)NC2=C(C(=O)OC(c3ccc(OC)c(OC)c3)C2)C1c1ccccc1 (mixture of isomers) | J774.A1 | cytotoxicity | – | – | – | – | > 20 µM |
| Cc1ccc(-c2nc3ccccc3o2)cc1NC(=O)c1cc([N+](=O)[O-])c(F)cc1Cl | J774.A1 | cytotoxicity | – | – | – | – | 4.3 µM |
| CC(C)C[C@H](NC(=O)CNC(=O)c1cc(Cl)ccc1Cl)B(O)O | BRD4-HiBiT cells | BRD4 degradation rescue | inhibitor | 2 h | 50% degradation rescued | dBET6 500 nM | 0.238 µM |
| CCOC(=O)C1=C(C)NC2=C(C(=O)CC(c3ccc(OC)c(OC)c3)C2)C1c1ccc(Cl)cc1 (stereo not drawn) | J774.A1 | cytotoxicity | – | – | – | – | > 20 µM |
| CCn1cc(-c2cc(Cn3ccoc3=N)cc3c2CCN([C@@H](C)c2cc(OC)ccn2)C3=O)c(C(F)(F)F)n1 | RCM-1 | cell growth | inhibitor | 120 h | – | – | 4.03 µM |
| CCOC(=O)C1=C(C)NC2=C(C(=O)OC(c3cccc(C)c3)C2)C1c1ccccc1Cl (stereo not drawn) | J774.A1 | cytotoxicity | – | – | – | – | > 20 µM |
| Cc1cc(OCc2nnc(SC3CCCC3)n2-c2cccnc2)ccc1-c1ccc(S(C)(=O)=O)cc1 | BRD4-HiBiT cells | BRD4 degradation rescue | inhibitor | 8 h | 50% degradation rescued | dBET6 500 nM | 20.7 µM |
| CCn1cc(-c2cc(Cn3ccnc3)cc3c2CCN([C@H](c2cc(OC)ccn2)C2CC2)C3=O)c(C(F)(F)F)n1 | NCI-H1650 | cell growth | inhibitor | 120 h | – | – | > 30 µM |
| CCOC(=O)C1=C(C)NC2=C(C(=O)CC(c3ccc(Cl)c(OC)c3)C2)C1c1ccccc1Cl (mixture of isomers) | J774.A1 | cytotoxicity | – | – | – | – | > 20 µM |
| Cc1cc(Cl)c(Cl)cc1NC(=O)c1cc([N+](=O)[O-])c(N2CCNCC2)cc1Cl | J774.A1 | cytotoxicity | – | – | – | – | 3.8 ± 1.9 µM |
| CCOC(=O)C1=C(C)NC2=C(C(=O)OC(c3ccc(OC)c(OC)c3)C2)C1c1ccc(OC)cc1 (stereo not drawn) | J774.A1 | cytotoxicity | – | – | – | – | > 20 µM |
| Nc1cccc2c1CN(C1CCC(=O)NC1=O)C2=O (stereo not drawn) | BRD4-HiBiT cells | BRD4 degradation rescue | inhibitor | 2 h | – | dBET6 500 nM | 2.47 µM |

Excerpt of the above:
| SMILES | cell line | read-out | action | time | notes | together with | EC50 |
| --- | --- | --- | --- | --- | --- | --- | --- |
| COc1cnc2cccc(N3CCc4c(cc(Cn5ccnc5C)cc4-c4cn(C)nc4C(F)(F)F)C3=O)c2c1 | RL95-2 | cell growth | inhibitor | 120 h | – | – | 13 µM |
| CCOC(=O)C1=C(C)NC2=C(C(=O)CC(c3ccc(Cl)c(OC)c3)C2)C1c1ccccc1Cl (mixture of isomers) | J774.A1 | cytotoxicity | – | – | – | – | > 20 µM |
| CCOC(=O)C1=C(C)NC2=C(C(=O)OC(c3ccc(OC)c(OC)c3)C2)C1c1ccc(OC)cc1 (stereo not drawn) | J774.A1 | cytotoxicity | – | – | – | – | > 20 µM |
